Assay results of several laboratories.
Every numbered part comes from another study and shows a few of its results, in no order. Positions count from the first letter of the parent shown.

Block 1 — technique: RNA Bind-n-Seq; molecule type: RNA; medium: in vitro; concentration: 1 µM; notes: whole 134-nt RNA, ends assumed; together with: 150 mM KCl; relative to: input library; direction: higher = stronger binding
Target: Ras GTPase-activating protein-binding protein 1, C-terminal RGG region (G3BP1, Homo sapiens, UniProt Q13283)
Chain of UniProt Q13283 (whole entry, looked up): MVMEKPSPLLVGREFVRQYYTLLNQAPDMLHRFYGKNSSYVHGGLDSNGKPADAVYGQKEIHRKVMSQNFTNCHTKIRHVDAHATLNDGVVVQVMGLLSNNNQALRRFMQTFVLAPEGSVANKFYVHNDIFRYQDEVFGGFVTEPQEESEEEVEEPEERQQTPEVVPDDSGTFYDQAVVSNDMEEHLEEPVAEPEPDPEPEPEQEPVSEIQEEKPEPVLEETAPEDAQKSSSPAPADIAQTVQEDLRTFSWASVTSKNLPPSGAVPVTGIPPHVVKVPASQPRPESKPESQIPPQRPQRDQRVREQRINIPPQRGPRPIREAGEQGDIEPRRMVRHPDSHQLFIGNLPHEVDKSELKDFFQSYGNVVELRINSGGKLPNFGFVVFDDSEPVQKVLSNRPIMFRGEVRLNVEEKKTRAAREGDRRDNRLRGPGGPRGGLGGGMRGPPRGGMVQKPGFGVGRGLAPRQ
| Sequence | log2 enrichment |
| --- | --- |
| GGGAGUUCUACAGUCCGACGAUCCAAGUCCUGUGCUACACAUCGUAUGUACCGAAUCGGGUUUGGGUUUGGGAAAGGGAAAGUAUUAUGUUACGCCGUUCGGAUCUGCACUUCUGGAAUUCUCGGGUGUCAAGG | 2.2 |
| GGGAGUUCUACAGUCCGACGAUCAAGUCCUGUGCUACACAUCGUAUGUACCGAAUCGGAAAGGUUUUUUUGGAAAAAGGAAAGUAUUAUGUUACGCCGUUCGGAUCUGCACUUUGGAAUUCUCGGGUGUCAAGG | -2.31 |
| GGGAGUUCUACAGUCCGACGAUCCUCAAGUCCUGUGCUACACAUCGUAUGUACCGAAUCGGGUUGGUUGGGGUUGGAAAGUAUUAUGUUACGCCGUUCGGAUCUGCACUUCCAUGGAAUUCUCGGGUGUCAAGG | -0.611 |
| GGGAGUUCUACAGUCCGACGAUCUCCUGUGCUACACAUCGUAUGUACCGAAUCGGAAAAAAGGGAAAAAAGGGAAAAAAGGGGAAAGUAUUAUGUUACGCCGUUCGGAUCUGCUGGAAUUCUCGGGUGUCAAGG | -1.34 |
| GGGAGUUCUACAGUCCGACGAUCACCAUGCAGGUGGGCAUCUUUGGGAAGUGGGGCAAGGGGGGGAUAGGGAGGGGGGUAACACUUUGGGAACAGGUGGUCCCAAGUCGUUUCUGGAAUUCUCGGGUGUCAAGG | 1.44 |
| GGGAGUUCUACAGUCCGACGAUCUUUGCUGUUGUUAACCAUCAAGGGACCUUGGAGAGUGGCCACUACACCAGCUUUAUCCGGCAGCACAAAGACCAGUGGUUCAAGUGUGACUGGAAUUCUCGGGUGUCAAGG | -1.43 |
| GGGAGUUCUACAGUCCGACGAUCCACAGUCAACACGCACCCACACAGACACAGAGGGAAGGGGUUGGGAUGGGGACAGGGUGCACAGCAGGGCGGGGUAGGACCCCAGCCCCUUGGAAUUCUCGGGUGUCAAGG | -0.234 |
| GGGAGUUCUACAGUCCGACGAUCAGUCCUGUGCUACACAUCGUAUGUACCGAAUCGGAAAAAGGUUUUUGGUUUUUUUGGAAAGUAUUAUGUUACGCCGUUCGGAUCUGCACUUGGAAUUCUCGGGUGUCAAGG | -2.32 |
| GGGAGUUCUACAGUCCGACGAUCAAGUCCUGUGCUACACAUCGUAUGUACCGAAUCGGAAAAAAAGGUGGAAAAAAAGGAAAGUAUUAUGUUACGCCGUUCGGAUCUGCACUUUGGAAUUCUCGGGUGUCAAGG | -2.08 |
| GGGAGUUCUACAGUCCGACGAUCUGGCCCGCCGUCCUGAGGAAGCUGAGGUUCACUGCGGUGCCCAAGAACCACCAGGCGGUCCGGAACCCGUGAGCGGCUGCCAGGGGCUCUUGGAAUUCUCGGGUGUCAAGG | -0.108 |
| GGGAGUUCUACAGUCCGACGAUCAGUCCUGUGCUACACAUCGUAUGUACCGAAUCGGGGUGGGGAAAGGGGAAAAAGGGGAAAGUAUUAUGUUACGCCGUUCGGAUCUGCACUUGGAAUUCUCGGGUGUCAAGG | 1.13 |
| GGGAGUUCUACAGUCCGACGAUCAGUCCUGUGCUACACAUCGUAUGUACCGAAUCGGGUUUGGGAAAGGGUUUUUUUGGGAAAGUAUUAUGUUACGCCGUUCGGAUCUGCACUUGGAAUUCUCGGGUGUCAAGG | 0.968 |
| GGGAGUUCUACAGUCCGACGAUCCACAGACAACACGCACCCACACAGACACAGAGGGAAGGGGUUGGGAUGGGGACAGGGUGCACAGCAAAACGGGGUAGGACCCCAGCCCCUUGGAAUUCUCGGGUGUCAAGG | -0.122 |
| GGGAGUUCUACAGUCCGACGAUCUGGGAGGUGGAUUUUGUUUAUUUUUUUAGCUCAUUUCCAGGGGUGGGAAUUUUUUUUUCAUAUGUGUCAUGAAUAAAGUUGUUUUUGAAAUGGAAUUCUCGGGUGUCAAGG | 4.34 |

Block 2 — technique: EMSA with sequencing; molecule type: double-stranded DNA, one strand shown; medium: in vitro; concentration: 10 and 20 nM; relative to: negative control set to 0; direction: higher = stronger binding
Target: Hepatocyte nuclear factor 3-alpha (Foxa1, Mus musculus, UniProt P35582, residues 1-468, full length assumed)
Chain of UniProt P35582 (whole entry, looked up): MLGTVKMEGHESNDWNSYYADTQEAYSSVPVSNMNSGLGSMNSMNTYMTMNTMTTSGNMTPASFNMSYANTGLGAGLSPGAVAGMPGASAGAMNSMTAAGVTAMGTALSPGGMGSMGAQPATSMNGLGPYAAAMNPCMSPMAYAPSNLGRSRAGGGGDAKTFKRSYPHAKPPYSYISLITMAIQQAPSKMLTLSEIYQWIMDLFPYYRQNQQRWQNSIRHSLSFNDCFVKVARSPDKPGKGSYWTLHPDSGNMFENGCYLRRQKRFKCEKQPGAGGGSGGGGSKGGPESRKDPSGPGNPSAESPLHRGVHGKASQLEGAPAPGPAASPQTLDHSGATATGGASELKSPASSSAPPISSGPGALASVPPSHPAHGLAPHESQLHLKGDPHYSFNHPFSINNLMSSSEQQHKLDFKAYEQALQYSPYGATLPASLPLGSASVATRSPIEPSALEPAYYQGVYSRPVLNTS
Notes: whole designed probe, mean of two concentrations, ends assumed
| Sequence | normalised bound fraction [ratio] |
| --- | --- |
| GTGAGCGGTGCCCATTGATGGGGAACTAAAATATTTAGATAAACTTAGATCCACTGTAGCTTGAAATTGTAATTTTCCCAGAGATTTCTATGGAATTAATTTTGTAAGAAACTAATATGTAAACATGAATGCTAATTTATAGATGCTTTTGCTTTTATCAGTAATATTTAATGTAGTTCTCTTCTATTTTTTGAAAATGATTACCTTGCTAAAGACATTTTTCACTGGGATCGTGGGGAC | 0.234 |
| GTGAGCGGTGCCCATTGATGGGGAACCGGTGTAGGTTTATTGCCTACATTTATCATTGGAGAAAATGCTAAATTTCAGTTAGAGATTAGTGAAAATGAAATGTAATTTTCTCCTATTTTAGATTGCCCTTTGGGATCCTGGATGAAGAGCCCTGCATTACACTGGGCACAGTGGCTCATGCCTGCAATCCCAGCTACTAAGGAGGCTGAGGTAGGAGGATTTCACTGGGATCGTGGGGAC | -0.0732 |
| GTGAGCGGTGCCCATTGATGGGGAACGCCACTCCCCGAGGGCTTTGAGGGATCTTTGAACGTTGTGCCCATCGCTGCTGCCGCTAGGGGGCCCAGGAGGGCCGCGGTTTGGAGCTGCTCTGTTTACACAAAGGGAATAGGGTCCCAGTGGGTGTTGCCGTTCGTCCATGACAGCCCACTGGATCAGGTCCCACAGTGCAAGCAATAACGTTTTGGGGGATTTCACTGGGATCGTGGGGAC | 0.446 |
| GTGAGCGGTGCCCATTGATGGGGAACCAAGTTTGTGGTCCAGGAGCAACAGGTTATGCCATACAGCCTAGGTGTGTAGTAGGCTACACACCGTCTATGTTTGTGTTGTACACTCTTTGTGCAAACATTGTTGATGAAATCTTCCATGACTCATCTCAGAACATACCCCTGTTGTTAAGCGATACATGACTGTACTTTTTTTAAAAAGTCCAAGGATATATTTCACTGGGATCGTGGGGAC | 0.416 |
| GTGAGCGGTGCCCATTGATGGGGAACTAAGTACTGCTATTTTATTTTTTACCATAAAAGAGTTGTGTACTCTCACACAGTGTGCTTGTGCAATTTTACTACACAGACACAAGTGTGGCTAAATTACCCTTGTGAAGTAAGTTATTTGAAAGAAAACATTGCCTTATTCACATTGTATCTCCTACAATGTGTTGTGCATAATGAAACAATAAATATTTATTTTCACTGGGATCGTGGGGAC | 0.208 |
| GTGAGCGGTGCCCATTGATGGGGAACTTTATGATCTGAGTATATATAGTAAGTACCTCCCCTTTCAGGGTAAGGCAGTAGGTAATGGTGAACAGGGAAGCAAAAGGTGACTCAGGTTGAGTAAACAACACCAAGCATATCTGACTCAAGGAATGCTTCAGAGGCCAGGGGTGCATGCCTGTAATCCCAGCACCTTGGAAGGCTGACACAGGAGGATCACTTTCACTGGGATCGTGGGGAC | 0.385 |
| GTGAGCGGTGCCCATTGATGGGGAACGGGCAGCATGTTTAATTAATCTATTATCTTCTGTATTCCTTTGTGTCTGTCCCTGGGGAACTCTCTGGAAATGATCAGGCTTGCTAGTGCCTGTGTTTACCTAACTGAGTCAGAGCTTTGTTGAAGAAGAAATAAAGCCCAGAACTCCAGCAGCTAAGAGTTTTATCTCCTAACAACTGTCTGCCCCAAGCTGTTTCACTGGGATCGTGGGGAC | 0.355 |
| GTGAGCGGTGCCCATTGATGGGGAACTTTTAAAAGGTTTTTAAAAGAATAAACAATTTTCTTTAAAAAATCATGCTACTGTAACATGATTTTACATAAAGACTGTACATATTGTAACAATGTAAACAAAGAATGATTTACTCTAATGGAAGCCAAGGGTGACAATAAAATCCTCTAAGCTGCAAATGGTGAAGTTATAGGGCCCAACCTGAAAGAGGGGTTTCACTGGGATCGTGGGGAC | 0.487 |

Block 3 — target: JUND, bZIP domain (human); technique: DHFR protein complementation; medium: yeast; relative to: wild-type JUN-FOS pair; direction: higher = stronger binding
Notes: single substitutions, most at no-binding floor
Starting sequence: JUN, bZIP domain (human); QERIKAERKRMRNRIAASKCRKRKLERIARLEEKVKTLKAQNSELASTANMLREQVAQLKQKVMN; partner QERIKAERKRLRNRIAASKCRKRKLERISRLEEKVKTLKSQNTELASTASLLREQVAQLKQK
| Variant | binding fitness [natural log] |
| --- | --- |
| A40Q | -0.398 |
| I28Q | -1.04 |
| A29C | -1.08 |
| K36D | -1.03 |
| I28R | -1.12 |
| A40V | -0.826 |
| A46E | -0.434 |
| E44M | -0.682 |
| R53T | -1.16 |
| E54A | -0.793 |
| Q41T | -0.989 |
| T48Q | -0.457 |
| E54G | -0.894 |
| Q55H | -1.07 |
| M51A | -0.462 |
| I28M | -0.829 |

Block 4 — technique: universal PBM; molecule type: double-stranded DNA, one strand shown; medium: in vitro; concentration: 600 nM; direction: higher = stronger binding
Target: Sal-like protein 4, full length isoform A (SALL4, Homo sapiens, UniProt Q9UJQ4, residues 1-1053)
Chain of UniProt Q9UJQ4 (whole entry, looked up): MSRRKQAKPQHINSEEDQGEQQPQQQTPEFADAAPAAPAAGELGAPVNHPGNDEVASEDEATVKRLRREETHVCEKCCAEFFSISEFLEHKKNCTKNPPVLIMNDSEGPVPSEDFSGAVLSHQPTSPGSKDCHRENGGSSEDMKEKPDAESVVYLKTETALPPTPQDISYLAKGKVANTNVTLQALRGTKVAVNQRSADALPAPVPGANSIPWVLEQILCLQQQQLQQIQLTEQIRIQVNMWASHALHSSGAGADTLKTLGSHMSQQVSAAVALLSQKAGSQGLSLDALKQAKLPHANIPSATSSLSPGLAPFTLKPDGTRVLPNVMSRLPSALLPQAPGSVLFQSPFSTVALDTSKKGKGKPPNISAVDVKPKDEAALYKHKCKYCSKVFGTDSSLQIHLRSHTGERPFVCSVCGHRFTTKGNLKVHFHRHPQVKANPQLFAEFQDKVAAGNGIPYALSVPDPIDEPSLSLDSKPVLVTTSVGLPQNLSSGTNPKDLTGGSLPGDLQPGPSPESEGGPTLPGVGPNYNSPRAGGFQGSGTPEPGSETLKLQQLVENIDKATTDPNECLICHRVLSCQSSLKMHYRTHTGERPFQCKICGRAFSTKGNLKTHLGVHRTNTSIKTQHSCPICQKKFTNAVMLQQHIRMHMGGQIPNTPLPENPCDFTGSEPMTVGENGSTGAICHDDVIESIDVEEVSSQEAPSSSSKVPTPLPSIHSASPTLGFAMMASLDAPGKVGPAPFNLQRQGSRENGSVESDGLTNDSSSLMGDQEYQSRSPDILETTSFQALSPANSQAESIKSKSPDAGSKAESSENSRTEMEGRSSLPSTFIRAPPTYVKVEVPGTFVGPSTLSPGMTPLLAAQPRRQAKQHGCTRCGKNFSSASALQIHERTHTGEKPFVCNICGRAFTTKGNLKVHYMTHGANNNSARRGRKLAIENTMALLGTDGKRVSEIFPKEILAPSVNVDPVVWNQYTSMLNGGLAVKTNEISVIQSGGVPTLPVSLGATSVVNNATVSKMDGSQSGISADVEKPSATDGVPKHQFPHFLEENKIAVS
Notes: 8-mer, flanks averaged, mean of replicates
| Sequence | E-score |
| --- | --- |
| GCACCCTA | -0.0895 |
| ACAAAGAT | 0.254 |
| CTGACTGC | -0.19 |
| AGAAGGCA | -0.0565 |
| AAGTTCAT | 0.0794 |
| GACATTAC | 0.151 |
| GCCCCTAC | -0.177 |
| TAGGGGGA | -0.178 |
| GCAACGTA | 0.0629 |
| GGTGGTAC | -0.28 |
| AGCTGCCC | -0.275 |
| ACTAGTCT | 0.00575 |
| GGTTTCGA | -0.25 |
| TGGCTGAA | 0.00287 |
| ACCTCCGG | -0.305 |
| GTGGATCA | -0.0549 |
| AACACCCC | -0.114 |
| AAAAGCGC | 0.157 |
| CAACGAGG | -0.0438 |
| ATAAACCC | 0.162 |
| GTACCTCA | 0.0381 |
| CCTTAACA | 0.206 |
| GTCAACTA | 0.194 |
| ACCACGCG | -0.258 |
| AGGCGATA | 0.0416 |

Block 5 — technique: protein binding microarray; molecule type: double-stranded DNA, one strand shown; medium: in vitro; concentration: not given; relative to: not given; direction: higher = stronger binding
Target: Histone acetyltransferase KAT6A, winged helix 1, GST fusion (KAT6A, Homo sapiens, UniProt Q92794, residues 1-85)
Notes: 8-mer, flanks averaged, mean of 2 arrays, mostly near background
Target sequence (chain): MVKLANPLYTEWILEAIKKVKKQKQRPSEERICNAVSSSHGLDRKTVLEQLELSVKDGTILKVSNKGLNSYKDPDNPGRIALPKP
| Sequence | E-score |
| --- | --- |
| GACTGGCC | -0.0552 |
| AACCCATC | -0.123 |
| AAACCCGC | 0.274 |
| CGTGTCTC | 0.0602 |
| ATCGGCAC | 0.246 |
| CTGGGTGA | -0.136 |
| ACGTCATA | -0.0402 |
| AGTCGAAG | -0.187 |
| GTACCTAA | -0.079 |
| CGGGCTAG | 0.181 |
| AGATCGGC | 0.205 |
| AACTCGAG | -0.24 |
| GAACGAGA | 0.0116 |
| GAGATCAC | -0.0819 |
| ATCCGCGA | 0.268 |
| ATAACTCA | -0.0633 |
| GACCCGCA | 0.289 |
| ATGCCATC | -0.117 |
| AAAGTGAT | -0.229 |
| AAGGGCAC | -0.158 |
| CCTTCGAG | -0.0277 |
| CAAGCTTC | -0.214 |
| CGCTTTAG | 0.144 |
| ACGAAAAT | -0.181 |
| AGAGGCGA | -0.0793 |

Some of these lines once more (block 3):
| Variant | binding fitness [natural log] |
| --- | --- |
| A40V | -0.826 |
| A46E | -0.434 |
| E44M | -0.682 |
| R53T | -1.16 |
| E54A | -0.793 |
| Q41T | -0.989 |
